Results from different studies.
Compare with care: the assays were run in different laboratories. Values joined by “and” are separate records of one study, mostly repeats; a detail may differ.
Target: Serine/threonine-protein kinase PLK4 (PLK4, Homo sapiens, UniProt O00444)

`COc1cc(-n2cc3cc(F)cc(C(N)=O)c3n2)cc(Cl)c1C1CC(O)(CCO)Cc2ccccc21` (centres unmarked) gave an inhibition of 0.87% (enzyme activity, inhibitor; 10 µM).
`CN1CCN(Cc2ccc(NC(=O)c3cccc(C#Cc4cnc(N)c5ncccc45)c3)cc2C(F)(F)F)CC1` gave a remaining binding of 69% (cell-free assay, competition with immobilised ligand; 0.5 µM).
`CCn1cc(C(=O)O)c(=O)c2c(N)c(F)c(NC3CCCCC3)cc21` has an inhibition of 1.7% (kinase activity; 0.1 µM, added: ATP at Km).
The inhibition of `CN1CC[C@@H](COc2cnc(C#N)cc2-c2ccn3nc(NC(=O)C4CC4)cc3c2)C1` is reported as 1% (enzyme activity, inhibitor; 1 µM).
The inhibition of `C=CC(=O)N1Cc2nc(-c3cc(-c4cc(Cl)cnc4Cl)c(F)cc3F)n(-c3ccncn3)c2C1` is reported as -3.9% (cell-free assay, inhibitor; 1 µM).
`C=CC(=O)Nc1cccc(-c2cnc3[nH]cc(C(=O)NC(C)(C)C)c3n2)c1` has an inhibition of 8% and 16% (kinase activity; 0.1 µM).
For `CN1CCN(Cc2ccc(-c3ccc(CO[C@H]4CCC[C@@H]4NC(=O)c4cc(-c5cnn(C)c5)cnc4N)cc3)cc2)CC1`, the inhibition was 0% (enzyme activity, inhibitor; 0.1 µM).
Under “activity vs control”, `CNC(=O)C[C@H](Cc1ccc(C#N)cc1)NC(=O)c1cc(-c2ccc(CN[C@H](C)c3ccc(C)cc3)o2)ccc1Cl` is recorded as 90% (enzyme activity, inhibitor; 1 µM).
For `CCN1CCN(Cc2ccc(C(=O)Nc3ccc(C)c(NCc4cnc5[nH]ccc5c4OC)c3)cc2C(F)(F)F)CC1`, the remaining binding was 83% (binding, competition with immobilised ligand; 1 µM).
With `COc1cc(Nc2nccc(-c3cnn4nc(OC)ccc34)n2)cc(C(F)(F)F)c1` the remaining binding was 64% (binding, competition with immobilised ligand; 1 µM).
`NC(=O)[C@@H](O)C[C@H]1CCc2sc3ncnc(O[C@H]4CC[C@H](N5CCOCC5)CC4)c3c21` has an inhibition of 3% (enzyme activity, inhibitor; 10 µM).
`O=C(Cc1ccc(OCc2ccccc2)cc1)NC1(C(=O)O)CCN(C(=O)c2ccc(-c3cccc(Cl)c3)cc2)CC1`: “activity vs control” 103% (enzyme activity, inhibitor; 10 µM).
`Cc1cnc2nc1Nc1cccc(c1)COC/C=C/COCc1cc(ccc1OCCN1CCOCC1)N2` gave a remaining binding of 54% (binding; 0.1 µM).
`CNS(=O)(=O)Nc1nccc(Cc2c(C)c3ccc(Oc4ncccc4F)cc3oc2=O)c1F` gave a remaining binding of 100% (binding, competition with immobilised ligand; 10 µM).
With `CC(C)=CC1OC(C)(C)C2C=C3C(=O)C(Cl)=CC(O)C3C3C(O)C4OC4C(=O)C132` (centres unmarked) the remaining binding was 89% (cell-free assay, competition with immobilised ligand; 10 µM).
For `Nc1ncc2c(n1)-c1c([nH]c3ccc(C4=CCOCC4)cc13)CCC2`, the remaining binding was 91% (binding, competition with immobilised ligand; 1 µM).
For `Cc1cccc(O[C@H]2CCC[C@@H](C(C)CNCc3ccncc3)C2)c1` (relative stereo), the inhibition was -18% (enzyme activity, inhibitor; 10 µM).

A few entries again:
The inhibition of `CN1CC[C@@H](COc2cnc(C#N)cc2-c2ccn3nc(NC(=O)C4CC4)cc3c2)C1` is reported as 1% (enzyme activity, inhibitor; 1 µM).
